Measurements collected from several papers.
Each numbered part is a random draw from the data of one study; scales do not carry over between parts.

Study 1
Target: Ras GTPase-activating protein-binding protein 1, RRM domain (G3BP1, Homo sapiens, UniProt Q13283)
Sequence of UniProt Q13283 (whole entry, looked up): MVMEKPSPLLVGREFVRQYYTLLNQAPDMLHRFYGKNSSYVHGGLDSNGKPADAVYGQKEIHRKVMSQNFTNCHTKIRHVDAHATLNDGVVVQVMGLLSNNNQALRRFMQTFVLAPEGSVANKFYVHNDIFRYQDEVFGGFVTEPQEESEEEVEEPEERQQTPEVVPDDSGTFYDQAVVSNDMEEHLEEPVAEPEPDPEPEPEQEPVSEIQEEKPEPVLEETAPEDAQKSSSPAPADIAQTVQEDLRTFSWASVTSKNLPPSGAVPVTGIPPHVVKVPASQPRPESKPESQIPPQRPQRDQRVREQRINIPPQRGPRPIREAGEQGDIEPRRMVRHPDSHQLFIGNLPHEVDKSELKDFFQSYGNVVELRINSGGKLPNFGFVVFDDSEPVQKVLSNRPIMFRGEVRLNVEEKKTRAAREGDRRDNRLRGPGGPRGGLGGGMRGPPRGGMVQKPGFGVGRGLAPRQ
Technique: RNA Bind-n-Seq
Molecule type: RNA
Sample: in vitro
Concentration: 1 µM
Notes: whole 134-nt RNA, ends assumed
With: 150 mM KCl
Reference: input library
Reading: higher = stronger binding
The log2 enrichment of `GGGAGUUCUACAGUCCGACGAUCGCAGGAAGUAAAAACAAAUGGAAAUGCUUCGGAUAGUGGCAGGAAAGGGGGUUGCUAAGGAAAGGGUGGGAUGGGAGUGGGUAAAGAGUUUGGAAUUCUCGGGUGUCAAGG` is reported as 1.25.
With `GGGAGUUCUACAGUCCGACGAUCGUCCUGUGCUACACAUCGUAUGUACCGAAUCGGUUUUUUUGGUUUUUGGUUUUUUUGGAAAGUAUUAUGUUACGCCGUUCGGAUCUGCACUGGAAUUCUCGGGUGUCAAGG` the log2 enrichment was -0.229.
With `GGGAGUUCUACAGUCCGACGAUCCAAGUCCUGUGCUACACAUCGUAUGUACCGAAUCGGGCCCGGGCCCGGGCCCGGGGAAAGUAUUAUGUUACGCCGUUCGGAUCUGCACUUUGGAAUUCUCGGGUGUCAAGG` the log2 enrichment was -0.736.
For `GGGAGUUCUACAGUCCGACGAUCCCUGUGCUACACAUCGUAUGUACCGAAUCGGAAAAAAGGGGAAAAAAGGGGAAAAAAGGGGAAAGUAUUAUGUUACGCCGUUCGGAUCUGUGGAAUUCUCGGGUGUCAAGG`, the log2 enrichment was -0.105.
For `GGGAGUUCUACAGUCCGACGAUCCCUGUGCUACACAUCGUAUGUACCGAAUCAAAUUUUUAAAUUUUUUUAAACCCCCCCAAAAAAGUAUUAUGUUACGCCGUUCGGAUCUGCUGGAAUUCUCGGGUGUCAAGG`, the log2 enrichment was -0.956.
With `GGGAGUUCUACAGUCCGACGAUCGCAGGAAGUAAAAACAAAUGGAAAUGCUUCGGAUAGUGGCAGGGGUGGGGGUUGCUAAGGAAAGGGUGGGAUGGCAGUGGGUAAAGAGUUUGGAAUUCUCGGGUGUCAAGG` the log2 enrichment was 1.03.
For `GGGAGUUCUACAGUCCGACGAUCAAGUCCUGUGCUACACAUCGUAUGUACCGAAUCGGGGUUUUGGUUUUGGGUUUUGGGAAAGUAUUAUGUUACGCCGUUCGGAUCUGCACUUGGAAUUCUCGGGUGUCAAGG`, the log2 enrichment was -0.222.
With `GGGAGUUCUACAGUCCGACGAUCUCUUCAGAGGCCCCACAGUAUCAAAUAUCCGCCUGGCUGGAUUAGAGUAUGUUCUGCACUUCACUGCACUGAAUGGGAAGAUUUACUUUCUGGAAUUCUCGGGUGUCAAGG` the log2 enrichment was -0.153.
For `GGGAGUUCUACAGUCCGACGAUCAAGUCCUGUGCUACACAUCGUAUGUACCGAAUCGGGAAAGGGUUUUUGGGAAAGGGAAAGUAUUAUGUUACGCCGUUCGGAUCUGCACUUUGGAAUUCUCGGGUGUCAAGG`, the log2 enrichment was 0.59.
`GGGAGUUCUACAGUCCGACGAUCUGGGAGGUGGAUUUUGUUUAUUUUUUUAGCUCAUUUCCAGGGGUGGGAAUUUUUUUUUAAUAUGUGUCAUGAAUGAAGUUGUUUUUGAAAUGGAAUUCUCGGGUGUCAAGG` has a log2 enrichment of 1.48.
`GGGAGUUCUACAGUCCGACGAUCCCUGUGCUACACAUCGUAUGUACCGAAUCGGGAAAAAAAGGGAAAAAGGGAAAAAAAGGGAAAGUAUUAUGUUACGCCGUUCGGAUCUGCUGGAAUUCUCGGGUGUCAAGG` gave a log2 enrichment of -0.0454.
For `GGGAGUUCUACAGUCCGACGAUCCUCAAGUCCUGUGCUACACAUCGUAUGUACCGAAUCGGAAAAAGGAGGAAAGGAAAGUAUUAUGUUACGCCGUUCGGAUCUGCACUUCCAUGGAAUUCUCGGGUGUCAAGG`, the log2 enrichment was -0.213.
`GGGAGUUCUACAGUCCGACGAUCUCAAGUCCUGUGCUACACAUCGUAUGUACCGAAUCGGUUUGGAAAGGAAAAAGGAAAGUAUUAUGUUACGCCGUUCGGAUCUGCACUUCCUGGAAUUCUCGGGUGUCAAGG` gave a log2 enrichment of -0.101.
For `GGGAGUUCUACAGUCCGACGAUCUCCUGUGCUACACAUCGUAUGUACCGAAUCGGGGAAAAAAAGGGGAAAAAGGGGAGGGGAAAGUAUUAUGUUACGCCGUUCGGAUCUGCAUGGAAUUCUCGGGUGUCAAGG`, the log2 enrichment was 0.782.

Study 2
Target: RING finger protein unkempt homolog, zinc fingers 1-6, SBP tag (UNK, Homo sapiens, UniProt Q9C0B0, residues 30-357)
Sequence of UniProt Q9C0B0 (30-357, looked up): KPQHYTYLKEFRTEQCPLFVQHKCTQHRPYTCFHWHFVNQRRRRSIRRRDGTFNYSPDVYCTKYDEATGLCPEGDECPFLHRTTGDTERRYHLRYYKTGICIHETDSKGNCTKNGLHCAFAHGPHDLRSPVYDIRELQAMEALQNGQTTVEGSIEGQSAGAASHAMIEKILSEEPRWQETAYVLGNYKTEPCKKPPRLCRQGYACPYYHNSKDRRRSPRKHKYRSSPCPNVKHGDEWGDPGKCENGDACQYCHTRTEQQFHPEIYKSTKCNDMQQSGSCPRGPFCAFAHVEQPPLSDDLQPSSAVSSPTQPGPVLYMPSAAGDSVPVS
Technique: RNA Bind-n-Seq
Molecule type: RNA
Sample: in vitro
Concentration: 100 nM
Notes: RNA with constant flanks, vertebrate orthologous sites, ends assumed
Reference: input RNA pool
Reading: higher = stronger binding
For `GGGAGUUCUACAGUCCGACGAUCAGAAAAUUUUAACCAAGAAUCUGAAGGUAGAAAUUCAGGACCUUGGUUAUCGUCCUCAUUUAGGAAUAGAUGUACACCUUUGUUCUCUAGAAGGAGGCGAGAGGGAAGAGAUGAAUCUUCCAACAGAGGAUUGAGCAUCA`, the bound/input enrichment was 0.508 ratio.
For `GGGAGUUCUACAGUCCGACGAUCGAAGGCAGAGCUCUUACAGUCUUAGCUGGGAUAGCGGCAGAUCUGAACUGUAAGAGUUGUUAGUGCAGGGUUUUUUUUUUGGGGGGGGGGUACAAGGCAUUUCUGAAAUUUUAUAAACUUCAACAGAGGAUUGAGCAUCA`, the bound/input enrichment was 2.08 ratio.
The bound/input enrichment of `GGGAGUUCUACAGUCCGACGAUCGAUACUGAAUAGUAUUAAACAUUUUCGUCUUCCUUUACCUUUUAUCCCCUACCUAAUAUCUAGUCUACUUUUUUAAAUUUCAAACUUCACUGCUCUUUGAAUUGAUAAUUCCAAUUUUCACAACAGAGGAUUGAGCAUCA` is reported as 7.26 ratio.
The bound/input enrichment of `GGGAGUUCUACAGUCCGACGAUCUAUUCCUGUCAUACCAGCAUAUUUACCUCUCGUCUGUGCACAGCUUCAAAUGUUACCGUCUAGUUAGAUUUUUAUUUAAAAUAUGAAAAACUGCUUUUCCCAAGAUGUUUUUUUAAAGACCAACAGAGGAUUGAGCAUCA` is reported as 1.53 ratio.
With `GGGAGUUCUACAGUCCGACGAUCCCGAAAGGCCAAAUUCCCUCCUCCCUUCUACUGCUUCUACCAACUGGAAGCACAGAAAACUAGAAUUUCAUUUAUUUUGUUUUUAAAAUACAUAUGUUGAUUUCUUGUAACAUCCAAUAGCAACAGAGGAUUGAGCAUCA` the bound/input enrichment was 0.568 ratio.
The bound/input enrichment of `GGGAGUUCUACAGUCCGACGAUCCCGAAAGGCCAAAUUCCCUCCUCCCUUCUACUGCUUCUACCAACUGGAAGCACAGAAAACUAGAAUUUCAUUUAUUUUGUUUUUAAAAAAAUAUAUGUUGAUUUCUUGUAACAUCCAAUACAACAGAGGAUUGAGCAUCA` is reported as 0.461 ratio.
For `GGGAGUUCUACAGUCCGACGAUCAUGCAUUUUGCCACUUGGACGUGGUCUGCACUGAAAGCUGCUGGCCCCUCCACAACAAUACAUACAAUGUUUGUCUUUUUUAAAGAUGUUCAAAAUGAAUUGAAUUUACUAAACAUGUAACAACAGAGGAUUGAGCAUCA`, the bound/input enrichment was 0.125 ratio.
For `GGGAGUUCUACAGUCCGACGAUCCUACUAUAAACAACUCAGGGCAGUAUUCUCGAUAUCCUUACAGUAACCUAAAUCAGGGAUUAGUUAACAGUACAGGGAUGAAUCAAAAUUUAGGCCUUACGAAUAAUACUCCAAUGAAUCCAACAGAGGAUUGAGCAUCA`, the bound/input enrichment was 1.22 ratio.
`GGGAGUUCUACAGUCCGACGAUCCUAAAUCCCAUCUCUUCUGUUUCAUAGUGUGGAAGUAUUUCUUCAACAACCAUAACUUUAAUGACAAUUUUUUAAAAAUUCUACAGAAACUUCCAGUGUGGAUACUAUAAGAAUGGGCCACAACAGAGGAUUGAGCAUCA` has a bound/input enrichment of 0.559 ratio.
With `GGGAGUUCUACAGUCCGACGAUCUCGUACCCCACCCUUGCGAGAGAGGGUGGGGAGAGCAGGUGACCCUCAGCUGUUCUGAUUUAGGAUCUUUUUUUCUUUCAUUUUAAGAAUUACUGUAUUUAUUAUGACGAUGGUGACUCCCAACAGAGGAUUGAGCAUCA` the bound/input enrichment was 0.787 ratio.
For `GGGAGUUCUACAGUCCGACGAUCCAACUAUUCUUUCUUAAAUCACAACACUGAAUGCGAAGUAGAACCUUUUUUAGUCACAGUAACUUAGUUUUAGGCCCAUACUGCAGUGAUUUUAUUUCUAUGCAGAUUUUGGAAAAUGUACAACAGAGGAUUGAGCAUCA`, the bound/input enrichment was 2.77 ratio.

Study 3
Target: Prothrombin, mature alpha-thrombin (F2, Homo sapiens, UniProt P00734)
Technique: aptamer microarray, sandwich
Molecule type: DNA with 2'F-ANA
Sample: in vitro
Concentration: 200 nM
Notes: whole 15-mer aptamer, many near background
With: Cy3 exosite-II aptamer, 400 nM
Reading: higher = stronger binding
Strand: GGTTGGTGTGGTTGG
`2'F-ANA at 1 2 3 7 10 13 14 15` — result for “mean fluorescence intensity”: 52.6 a.u.
Under “mean fluorescence intensity”, `2'F-ANA at 1 3 8 9 11 12 13 15` is recorded as 497 a.u.
`2'F-ANA at 2 9 10 13`: “mean fluorescence intensity” 119 a.u.
Under “mean fluorescence intensity”, `2'F-ANA at 5 9 10 15` is recorded as 46.7 a.u.
Under “mean fluorescence intensity”, `2'F-ANA at 1 2 4 6 7 8 10 11 15` is recorded as 52.9 a.u.
For `2'F-ANA at 1 2 3 4 5 7 8 9 13 14`, “mean fluorescence intensity” read 78.5 a.u.
`2'F-ANA at 1 5 6 8 11 12 14`: “mean fluorescence intensity” 54.3 a.u.
`2'F-ANA at 1 3 6 9 11 14 15` — result for “mean fluorescence intensity”: 71.2 a.u.
`2'F-ANA at 2 5 6 9 11 14` — result for “mean fluorescence intensity”: 91.5 a.u.
For `2'F-ANA at 1 2 3 8 9 13`, “mean fluorescence intensity” read 182 a.u.
Under “mean fluorescence intensity”, `2'F-ANA at 5 10 12 15` is recorded as 72.3 a.u.
Under “mean fluorescence intensity”, `2'F-ANA at 2 4 6 7 8 9 14 15` is recorded as 528 a.u.
`2'F-ANA at 2 3 6 9 11 12 13 14`: “mean fluorescence intensity” 339 a.u.
Under “mean fluorescence intensity”, `2'F-ANA at 1 2 4 5 6 7 9 10 13 14` is recorded as 49.9 a.u.
`2'F-ANA at 2 3 5 7 8 9 11 12 13`: “mean fluorescence intensity” 152 a.u.
`2'F-ANA at 1 4 5 7 9 10 12 14` — result for “mean fluorescence intensity”: 280 a.u.
Under “mean fluorescence intensity”, `2'F-ANA at 2 4 5 9 11 12 14 15` is recorded as 50 a.u.
Under “mean fluorescence intensity”, `2'F-ANA at 5 6 10 11 12 15` is recorded as 48.2 a.u.
Under “mean fluorescence intensity”, `2'F-ANA at 1 2 3 5 8 9 10 12 13 14 15` is recorded as 65.3 a.u.
Under “mean fluorescence intensity”, `2'F-ANA at 1 3 5 6 7 9 13` is recorded as 73.4 a.u.
Under “mean fluorescence intensity”, `2'F-ANA at 1 2 3 8 13 15` is recorded as 213 a.u.
`2'F-ANA at 1 3 7 9 12 15`: “mean fluorescence intensity” 519 a.u.
`2'F-ANA at 1 2 4 5 8 9 13`: “mean fluorescence intensity” 72.6 a.u.
For `2'F-ANA at 3 4 5 6 7 8 10 12 15`, “mean fluorescence intensity” read 63.6 a.u.

Study 4
Cell line: yeast with cyclin E2-Cln2 chimera
Effect on: cell growth
Mode: binder
Technique: competitive growth deep sequencing
Molecule type: peptide
Concentration: concentration not given
Notes: peptide tiling library
Reading: direction not given
`GTPKRCLDLSNLSSGE` — result for “growth enrichment score”: 0.0952.
Under “growth enrichment score”, `RKLDLEGIGR` is recorded as 1.65.
Under “growth enrichment score”, `IFNKPECGRVQRAIFQ` is recorded as 0.437.
`HPESPPRKRLKSKGSD` — result for “growth enrichment score”: 0.542.
For `PKRAKRKLYTSEISSP`, “growth enrichment score” read 0.713.
`TLPYDLACTGGDFVLF`: “growth enrichment score” -0.00438.
Under “growth enrichment score”, `ASVLSKPIFCFVKD` is recorded as -0.255.
`TQERKQIHCLSEDELS`: “growth enrichment score” -0.0164.
For `PKNAKRNLSSEFAN`, “growth enrichment score” read 0.835.
`MNQELLSVGSKRRRTG` — result for “growth enrichment score”: 1.33.
`IPMIAKNLMCELDE` — result for “growth enrichment score”: 0.897.

For quick reference, copied from above (study 3):
`2'F-ANA at 2 3 5 7 8 9 11 12 13`: “mean fluorescence intensity” 152 a.u.
Under “mean fluorescence intensity”, `2'F-ANA at 1 2 4 6 7 8 10 11 15` is recorded as 52.9 a.u.
`2'F-ANA at 1 5 6 8 11 12 14`: “mean fluorescence intensity” 54.3 a.u.
`2'F-ANA at 1 4 5 7 9 10 12 14` — result for “mean fluorescence intensity”: 280 a.u.
Under “mean fluorescence intensity”, `2'F-ANA at 2 4 5 9 11 12 14 15` is recorded as 50 a.u.
Under “mean fluorescence intensity”, `2'F-ANA at 2 4 6 7 8 9 14 15` is recorded as 528 a.u.
Under “mean fluorescence intensity”, `2'F-ANA at 1 3 8 9 11 12 13 15` is recorded as 497 a.u.
For `2'F-ANA at 1 2 3 4 5 7 8 9 13 14`, “mean fluorescence intensity” read 78.5 a.u.
Under “mean fluorescence intensity”, `2'F-ANA at 1 2 3 5 8 9 10 12 13 14 15` is recorded as 65.3 a.u.
